# Assay results collected from several papers.
# Each numbered part is a random draw from the data of one study; scales do not carry over between parts.

# Study 1
# Target: Histone acetyltransferase KAT6A, winged helix 1, GST fusion (KAT6A, Homo sapiens, UniProt Q92794, residues 1-85)
# Method: protein binding microarray
# Molecule type: double-stranded DNA, one strand shown
# Sample: in vitro
# Tested at: not given
# Notes: 8-mer, flanks averaged, mean of 2 arrays, mostly near background
# Relative to: not given
# Direction: higher = stronger binding
# Target sequence (chain): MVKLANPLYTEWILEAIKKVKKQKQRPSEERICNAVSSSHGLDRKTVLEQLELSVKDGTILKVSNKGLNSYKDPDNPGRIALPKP
Oligonucleotide,E-score
CGCGAGAG,0.343
AATTATTC,-0.0491
ATAGAACC,-0.00558
AAACCATT,-0.144
CGCAGCGA,0.227
ATCATACA,-0.0695

# Study 2
# Target: Interferon regulatory factor 5, full length, phosphomimetic (IRF5, Homo sapiens, UniProt Q13568-2, residues 1-514, K96S/S451D/S453D/S456D/S462D)
# Method: protein-binding microarray
# Molecule type: double-stranded DNA, one strand shown
# Sample: in vitro
# Tested at: 250 nM
# Notes: 60-bp whole probe
# Together with: salmon DNA 0.4 mg/ml
# Relative to: random background probes
# Direction: higher = stronger binding
# Constant ends, left off below: GCCTAGCAC … GTCTTGATTCGCTTGACGCTGCTG
Oligonucleotide,log fluorescence [z-score]
TTAGGTTCCGGTTTCAGTTAGTGCTAG,5.23
GACGGCCTGCTTTTCCTGACGTGCTAG,-0.352
TCATTTATATACCTGAAACTGTGCTAG,1.02
GACCATTTCGGGTTTCGAGACGTGCTA,4.69
GACAGACTGGACACTGGGGACGTGCTA,-0.77

# Study 3
# Target: Prothrombin, mature alpha-thrombin (F2, Homo sapiens, UniProt P00734)
# Method: aptamer microarray, sandwich
# Molecule type: DNA with 2'F-ANA
# Sample: in vitro
# Tested at: 200 nM
# Notes: whole 15-mer aptamer, many near background
# Together with: Cy3 exosite-II aptamer, 400 nM
# Direction: higher = stronger binding
# Oligonucleotide: GGTTGGTGTGGTTGG
Modification,mean fluorescence intensity
2'F-ANA at 5 6 10 12 13 15,46.8 a.u.
2'F-ANA at 12,1020 a.u.
2'F-ANA at 2 3 4 5 7 8 12 13 14,53.5 a.u.
2'F-ANA at 1 2 3 4 5 7 10 11 12 14 15,48 a.u.
2'F-ANA at 2 5 7 9 13 14 15,47.6 a.u.
2'F-ANA at 3 4 7 10 11,319 a.u.
2'F-ANA at 2 5 9 13 14 15,62.8 a.u.
2'F-ANA at 3 5 7 10 12,66.6 a.u.
2'F-ANA at 2 4 6 7 10 12,142 a.u.

# Mixed results
Molecule,target,assay,system,conditions,how to read,quantity,value
"PhoQ, residues 284 288 289 292 302 303 NLCILV","PhoP, residues 12 14 15 18 19 LWHVM (Escherichia coli, UniProt P23836)","Sort-seq, item: YFP reporter",E. coli,"PhoQ-PhoP variant library, together with: 10 µM Mg2+","relative to: high Mg2+ state, higher = stronger signaling",fold induction,22.8

# For quick reference, copied from above (study 2):
Oligonucleotide,log fluorescence [z-score]
GACGGCCTGCTTTTCCTGACGTGCTAG,-0.352
TCATTTATATACCTGAAACTGTGCTAG,1.02
